Assay results from different studies.
Parts stem from different laboratories: compare values within a part only. Changes are numbered by the printed parent chain.

Block 1
Target: Sal-like protein 4, full length isoform A (SALL4, Homo sapiens, UniProt Q9UJQ4, residues 1-1053)
Chain of UniProt Q9UJQ4 (whole entry, looked up): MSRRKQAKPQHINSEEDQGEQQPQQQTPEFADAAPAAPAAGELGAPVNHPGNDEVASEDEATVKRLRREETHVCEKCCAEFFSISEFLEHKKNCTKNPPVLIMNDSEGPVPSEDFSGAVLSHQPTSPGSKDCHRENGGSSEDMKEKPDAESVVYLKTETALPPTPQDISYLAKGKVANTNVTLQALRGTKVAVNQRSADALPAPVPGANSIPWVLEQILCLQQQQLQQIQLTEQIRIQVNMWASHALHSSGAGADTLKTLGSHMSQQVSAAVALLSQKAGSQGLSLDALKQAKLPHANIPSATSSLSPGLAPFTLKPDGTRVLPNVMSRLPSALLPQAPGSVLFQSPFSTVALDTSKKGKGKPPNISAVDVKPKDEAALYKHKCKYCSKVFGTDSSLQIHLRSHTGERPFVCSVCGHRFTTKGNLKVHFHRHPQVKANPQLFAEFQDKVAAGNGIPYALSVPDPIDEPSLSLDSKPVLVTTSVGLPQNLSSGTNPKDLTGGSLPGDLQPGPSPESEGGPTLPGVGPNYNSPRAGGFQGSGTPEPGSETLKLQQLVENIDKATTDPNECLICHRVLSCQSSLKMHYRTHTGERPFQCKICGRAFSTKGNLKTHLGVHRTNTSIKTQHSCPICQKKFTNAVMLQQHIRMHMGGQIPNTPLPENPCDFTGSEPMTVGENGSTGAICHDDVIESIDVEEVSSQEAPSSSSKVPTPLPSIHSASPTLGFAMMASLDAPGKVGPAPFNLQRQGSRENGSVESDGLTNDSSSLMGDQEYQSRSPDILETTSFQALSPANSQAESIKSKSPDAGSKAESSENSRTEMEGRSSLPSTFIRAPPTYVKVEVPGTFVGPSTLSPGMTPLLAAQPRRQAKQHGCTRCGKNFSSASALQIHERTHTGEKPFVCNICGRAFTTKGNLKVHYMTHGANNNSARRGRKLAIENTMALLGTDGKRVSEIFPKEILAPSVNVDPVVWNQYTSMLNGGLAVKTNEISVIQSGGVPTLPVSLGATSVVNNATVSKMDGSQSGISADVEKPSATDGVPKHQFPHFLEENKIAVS
Method: universal PBM
Form: double-stranded DNA, one strand shown
Sample: in vitro
Tested at: 600 nM
Notes: 8-mer, flanks averaged, mean of replicates
Reading: higher = stronger binding
Strand | E-score
ATCTATCC | 0.135
AAGAGACC | -0.204
AGCGTCAC | -0.26
AAGACTAG | -0.0447
AATTAATA | 0.474
ACACACCA | -0.0186
ACTGTCTA | 0.0519
ATGACTAA | 0.225
ATAGCGCC | -0.12
CGTGAAAG | 0.145
TTCTTCAA | 0.139
ACGGGGAG | -0.359
TGGCAAAA | 0.261
GGAGAACA | 0.00413
AATTGACC | 0.0503
CTGAGCTC | -0.126
TATCCCAA | 0.0493
ATAATGGA | 0.246
CACATATG | 0.144
GGCGCGCC | -0.156

Block 2
Target: Prothrombin, mature alpha-thrombin (F2, Homo sapiens, UniProt P00734)
Method: aptamer microarray, sandwich
Form: DNA with 2'F-ANA
Sample: in vitro
Tested at: 200 nM
Notes: whole 15-mer aptamer, many near background
With: Cy3 exosite-II aptamer, 400 nM
Reading: higher = stronger binding
Strand: GGTTGGTGTGGTTGG
Modification | mean fluorescence intensity [a.u.]
2'F-ANA at 1 2 3 5 10 12 15 | 51.2
2'F-ANA at 1 4 7 8 10 11 12 15 | 112
2'F-ANA at 1 2 6 7 9 10 11 12 13 15 | 64.6
2'F-ANA at 2 7 8 | 596
2'F-ANA at 2 8 11 | 500
2'F-ANA at 5 7 9 11 14 | 45.6
2'F-ANA at 1 2 5 7 8 9 10 12 15 | 52.6
2'F-ANA at 1 2 5 6 7 8 11 12 13 14 | 48.4
2'F-ANA at 1 2 3 6 9 10 | 64.5
2'F-ANA at 2 3 11 13 14 15 | 344
2'F-ANA at 2 5 7 10 11 14 15 | 45.6
2'F-ANA at 2 4 8 10 13 14 15 | 62.2
2'F-ANA at 2 3 5 7 12 13 15 | 146
2'F-ANA at 1 3 4 6 8 9 10 11 12 13 15 | 90.8
2'F-ANA at 2 5 7 8 11 12 13 15 | 102
2'F-ANA at 1 3 4 7 9 10 12 13 15 | 77.3

Block 3
Target: PABPC1L2, full length, GST fusion (mouse, UniProt A0ABA7IW68)
Method: RNAcompete
Form: RNA
Sample: in vitro
Tested at: 20 nM
Notes: 7-mer, probes averaged, single round
Reference: mean of 7-mers
Reading: higher = stronger binding
Target sequence (chain): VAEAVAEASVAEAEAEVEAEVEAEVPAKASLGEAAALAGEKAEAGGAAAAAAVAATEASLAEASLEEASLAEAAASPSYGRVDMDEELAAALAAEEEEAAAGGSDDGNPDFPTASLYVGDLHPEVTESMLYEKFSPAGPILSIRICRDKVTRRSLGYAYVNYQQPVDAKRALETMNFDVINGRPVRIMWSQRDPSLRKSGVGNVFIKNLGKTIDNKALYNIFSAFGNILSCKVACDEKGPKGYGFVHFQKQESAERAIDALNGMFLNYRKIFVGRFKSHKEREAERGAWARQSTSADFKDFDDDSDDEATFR
Strand | 7-mer Z-score
GGCGUGA | 0.0859
AUCUUGU | -0.434
GAUCAGA | -0.00833
GAGAUGU | -0.0554
ACUGCCC | -0.179
CAUCCGU | -0.286
GCCCGUU | -0.476
CCUGGCC | -0.414
UCGACCA | -0.287
UCGAGGC | -0.202
CCAGAUG | -0.0663
AUGUGGC | 0.0497
CCCCCGG | -0.467
AGUGCCG | -0.202
UGUAUGG | -0.157
AGGACAC | 0.18
UUCAGAG | -0.159
GGAUAGC | 0.017
UUGACCU | -0.246
UGCAAUA | 0.046
GCACGGG | 0.0533
GACCGGG | 0.00979
GCCACUA | -0.193

Block 4
Target: RING finger protein unkempt homolog, zinc fingers 1-6, SBP tag (UNK, Homo sapiens, UniProt Q9C0B0, residues 30-357)
Chain of UniProt Q9C0B0 (30-357, looked up): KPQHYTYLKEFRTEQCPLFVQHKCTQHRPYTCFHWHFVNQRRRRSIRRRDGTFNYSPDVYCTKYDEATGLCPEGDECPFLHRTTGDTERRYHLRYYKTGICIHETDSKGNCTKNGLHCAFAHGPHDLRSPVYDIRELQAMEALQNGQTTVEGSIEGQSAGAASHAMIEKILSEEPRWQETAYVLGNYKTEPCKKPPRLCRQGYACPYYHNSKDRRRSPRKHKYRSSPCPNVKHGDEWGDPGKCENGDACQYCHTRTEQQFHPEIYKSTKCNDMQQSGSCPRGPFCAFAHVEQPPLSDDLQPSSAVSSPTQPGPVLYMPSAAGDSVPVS
Method: RNA Bind-n-Seq
Form: RNA
Sample: in vitro
Tested at: 100 nM
Notes: RNA with constant flanks, vertebrate orthologous sites, ends assumed
Reference: input RNA pool
Reading: higher = stronger binding
All sequences stand within: GGGAGUUCUACAGUCCGACGAUC … CAACAGAGGAUUGAGCAUCA
Strand | bound/input enrichment [ratio]
CUGAAGCUUUGUGUUUGGCUGCACCUGCAUAAGCUGCUACAAAUAGAAUAAAGAAUCUCAUAGCCUGUAUCUAUCAUUUAGAUGCAUGGAAAAAUGGGCUUUGCACACAAUGGGUUUGGA | 1.43
UGUAAAAUAUUGGAUGCAGUGUAUAAAUUACCCAAGGCAGUGACUUCAGCGUUACAUAUAUUGUCAGUUUUAAAAUCAUCUGCAUUUAUUUAAACUCCUGUAUCGGAUUGUUUGAUCUGU | 0.408
GUCAUCUGACUGGAUGAAGACUGUUCCAAGUUACAACCAAACAAAUAGCUCCAUGGACUUUAGAAAUUAUAUGAUGAGGGAUGAGACUCUGGAACCACUGCCUAAAAACUGGGAAAUGGC | 1.35
GUCCUUUCACACUGUCCCUGGCCAGGGUCGAGGACUGGAGGCUUCACUGAGGACCCACAUUUCAGUUUUCUACAUCAUUGUCCAGAAAGAGAUGUGACUGAAAUGGUCGAGUGUCUCUUU | 0.318
UGUCUGCCUCAUUCUAAAAUUUACACAGUAGACCAUUUGUCAUCCAUGCUGUCCCACAGAUAGUUUUUUUGUUUACGAUUUAUGACAGGUUUAUGUUACUUCUAUUUGAAUUUCUAUAUU | 1.62
UGUAGUUUUGUUUUUAAUUUCAAGCAAAAUCUUAUUGUACUUGAAUGUGCCCUGUUUUGUUAGCACACCUAGACUUGCUGUAACUGUACUCAUGUCCCAGUAUGUACGUUCUUUCUAUGA | 0.445
AGUUUGUAUGUACAUUAUUCACACUCCUCUCUGUUGUGUUUGGGGGAAAAAAAAGACAUUUUAGCCUUUUUUAAGGUUAUUUAAUUUCAUGUUAUUUGGUUGCAUGAAGUUGCCCUUAAC | 0.479
CCUAAAAUUAUAGCAGAAGAGCCAAGCAGUAGCAGUUUUUUUUGUAAAUUUAAAAAUAAUUAGAUCCAGACUUUGUUUCCUUCUUCAAUUUUAAAAAUAAAAAAUACCUCAGUGCUGUGU | 0.794
UUGAUUAUCCAUUAAAAUGUGUGUCAAAUGCUGAAUAUAGAAUUAAACCUUCACUUAGAAUAGAGUUAAUUUGUUAUAAUGAAGCUAUCUAUAGGUUUCCUUAAACCAGAGAUGCACUGC | 0.303
UUACAGUCAUUGAUGGACUCUAUUUUUUUAUUAUUACUUGGACCUUGGUCGUUUUUAUACUAGCAAAAUGUCUUGUUUUAAUUUGGGGGCUUUUUUUGGGGGGGAGGAGGGAGGGCGUGA | 3.26
UCACACUGUGCUGUGGCACCCUGUCAACACGGAGUAGACCGGCUCUGCAGAUGGGAGAUUUAGAGUUUUUUAAAUUAUGUACUGGGGACAGGUUUUUGUCGCUUUACAUUGCUUCCUAGU | 1.24

Block 5
Target: CEP164, C-terminal peptide (human)
Method: DHFR complementation, deep sequencing
Sample: yeast
Notes: single substitutions, model-inferred values
Reference: wild type
Reading: higher = weaker binding
Starting sequence: PDZK1, PDZ domain 2 (human); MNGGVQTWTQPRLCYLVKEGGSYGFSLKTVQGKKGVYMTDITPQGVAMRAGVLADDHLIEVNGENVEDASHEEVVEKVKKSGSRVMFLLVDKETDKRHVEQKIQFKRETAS; partner HNRVKVYRF
Substitution | binding free energy change [kcal/mol]
S111L | 0.372
E19Q | 0.05
P43F | 0.115
T7D | -0.00522
A69I | -0.444
V74P | 0.21
Y37G | 2.39
H71P | -0.0707
D55F | 0.815
Q10I | 0.322
C14E | 1.54
S83K | -0.0423
V85H | 1.42
L16M | 0.25
K34S | 0.263
F105K | -0.225
D68P | 0.616
I103V | -0.0793
M38I | 0.285
T9M | 0.0333
V75E | 1.02
V46P | 0.132
Q31Y | 0.0236
R107V | -0.115

Block 6
Target: CREBL2, bZIP domain (human)
Method: DHFR protein complementation
Sample: yeast
Notes: single substitutions, most at no-binding floor
Reference: wild-type JUN-FOS pair
Reading: higher = stronger binding
Starting sequence: JUN, bZIP domain (human); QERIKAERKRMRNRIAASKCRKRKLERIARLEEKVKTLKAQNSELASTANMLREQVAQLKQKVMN; partner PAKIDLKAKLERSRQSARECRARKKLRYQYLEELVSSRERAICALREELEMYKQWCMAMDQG
Substitution | binding fitness
Q41E | -1.61 natural log
V56K | -1.58 natural log
R53L | -1.51 natural log
L45E | -1.44 natural log
Q41H | -1.58 natural log
M51H | -1.56 natural log
L52N | -1.43 natural log
A57T | -1.57 natural log
L45V | -1.41 natural log
Q55T | -1.48 natural log
V56E | -1.53 natural log
S43N | -1.46 natural log
E54V | -1.55 natural log
L38K | -1.42 natural log
T48H | -1.54 natural log
N42M | -1.48 natural log
L59A | -1.56 natural log

Block 7
Target: CCNB1, cyclin fold, Cln2 fusion (human)
Method: yeast growth competition, sequencing
Sample: yeast
Notes: weak parent motif
Reference: not given
Reading: higher = stronger binding
Starting sequence: HIRA docking peptide (human); SLSKRKLELEVET
Substitution | normalised enrichment score
K6A | 0.85
K4A | -0.552
L7A | -0.736
L9A | 0.777
R5K | 0.214
E10A | -0.165
R5A L7A | -0.0135
T13A | 0.446
R5K L9F | 0.00788
R5A | -0.0579

Other studies, line by line
Molecule | target | assay | system | setting | scale | endpoint | value
PhoQ, residues 284 288 289 292 302 303 AMDMFI | PhoP, residues 12 14 15 18 19 SPWRL (Escherichia coli, UniProt P23836) | Sort-seq, measured: YFP reporter | E. coli | PhoQ-PhoP variant library, with: 10 µM Mg2+ | reference: high Mg2+ state, higher = stronger signaling | fold induction | 1.97

A few entries again (block 4):
Strand | bound/input enrichment [ratio]
UGUCUGCCUCAUUCUAAAAUUUACACAGUAGACCAUUUGUCAUCCAUGCUGUCCCACAGAUAGUUUUUUUGUUUACGAUUUAUGACAGGUUUAUGUUACUUCUAUUUGAAUUUCUAUAUU | 1.62
AGUUUGUAUGUACAUUAUUCACACUCCUCUCUGUUGUGUUUGGGGGAAAAAAAAGACAUUUUAGCCUUUUUUAAGGUUAUUUAAUUUCAUGUUAUUUGGUUGCAUGAAGUUGCCCUUAAC | 0.479
UGUAGUUUUGUUUUUAAUUUCAAGCAAAAUCUUAUUGUACUUGAAUGUGCCCUGUUUUGUUAGCACACCUAGACUUGCUGUAACUGUACUCAUGUCCCAGUAUGUACGUUCUUUCUAUGA | 0.445
UCACACUGUGCUGUGGCACCCUGUCAACACGGAGUAGACCGGCUCUGCAGAUGGGAGAUUUAGAGUUUUUUAAAUUAUGUACUGGGGACAGGUUUUUGUCGCUUUACAUUGCUUCCUAGU | 1.24
GUCAUCUGACUGGAUGAAGACUGUUCCAAGUUACAACCAAACAAAUAGCUCCAUGGACUUUAGAAAUUAUAUGAUGAGGGAUGAGACUCUGGAACCACUGCCUAAAAACUGGGAAAUGGC | 1.35
UUGAUUAUCCAUUAAAAUGUGUGUCAAAUGCUGAAUAUAGAAUUAAACCUUCACUUAGAAUAGAGUUAAUUUGUUAUAAUGAAGCUAUCUAUAGGUUUCCUUAAACCAGAGAUGCACUGC | 0.303
GUCCUUUCACACUGUCCCUGGCCAGGGUCGAGGACUGGAGGCUUCACUGAGGACCCACAUUUCAGUUUUCUACAUCAUUGUCCAGAAAGAGAUGUGACUGAAAUGGUCGAGUGUCUCUUU | 0.318
